Published values pooled from the literature.
Each numbered part is a random draw from the data of one study; scales do not carry over between parts. Values joined by “and” are separate records of one study, mostly repeats; a detail may differ.
Chain of UniProt P42681 (whole entry, looked up): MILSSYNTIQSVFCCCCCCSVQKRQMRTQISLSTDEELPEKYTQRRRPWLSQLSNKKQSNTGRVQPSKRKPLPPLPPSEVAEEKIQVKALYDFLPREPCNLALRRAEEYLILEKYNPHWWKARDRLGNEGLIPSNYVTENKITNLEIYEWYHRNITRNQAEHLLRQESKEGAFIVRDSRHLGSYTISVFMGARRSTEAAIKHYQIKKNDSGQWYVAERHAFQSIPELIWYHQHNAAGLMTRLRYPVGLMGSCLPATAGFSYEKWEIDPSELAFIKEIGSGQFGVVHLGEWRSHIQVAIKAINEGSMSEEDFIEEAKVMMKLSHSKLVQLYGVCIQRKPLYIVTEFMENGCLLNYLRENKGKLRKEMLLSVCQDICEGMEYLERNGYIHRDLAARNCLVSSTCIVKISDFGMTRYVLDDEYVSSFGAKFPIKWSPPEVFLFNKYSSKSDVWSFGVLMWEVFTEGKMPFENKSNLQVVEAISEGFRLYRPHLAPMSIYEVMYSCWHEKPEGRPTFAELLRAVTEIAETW
Chain of UniProt Q9H4B4 (whole entry, looked up): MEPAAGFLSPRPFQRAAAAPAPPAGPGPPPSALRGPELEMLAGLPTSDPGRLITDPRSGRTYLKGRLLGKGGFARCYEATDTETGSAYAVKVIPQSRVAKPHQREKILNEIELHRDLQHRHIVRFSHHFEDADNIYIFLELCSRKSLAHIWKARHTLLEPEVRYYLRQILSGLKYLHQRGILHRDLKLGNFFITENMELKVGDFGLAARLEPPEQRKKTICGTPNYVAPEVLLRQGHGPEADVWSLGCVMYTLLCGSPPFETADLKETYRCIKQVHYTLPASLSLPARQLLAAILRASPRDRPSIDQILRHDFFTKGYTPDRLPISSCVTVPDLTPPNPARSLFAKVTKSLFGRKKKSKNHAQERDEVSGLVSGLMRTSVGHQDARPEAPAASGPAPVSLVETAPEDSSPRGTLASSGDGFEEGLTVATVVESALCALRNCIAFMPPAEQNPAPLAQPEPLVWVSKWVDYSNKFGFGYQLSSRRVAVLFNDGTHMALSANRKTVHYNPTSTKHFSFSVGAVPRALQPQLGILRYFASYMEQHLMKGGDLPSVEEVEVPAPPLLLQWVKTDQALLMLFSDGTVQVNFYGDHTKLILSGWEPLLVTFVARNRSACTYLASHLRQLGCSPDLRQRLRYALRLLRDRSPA
Chain of UniProt P28482 (whole entry, looked up): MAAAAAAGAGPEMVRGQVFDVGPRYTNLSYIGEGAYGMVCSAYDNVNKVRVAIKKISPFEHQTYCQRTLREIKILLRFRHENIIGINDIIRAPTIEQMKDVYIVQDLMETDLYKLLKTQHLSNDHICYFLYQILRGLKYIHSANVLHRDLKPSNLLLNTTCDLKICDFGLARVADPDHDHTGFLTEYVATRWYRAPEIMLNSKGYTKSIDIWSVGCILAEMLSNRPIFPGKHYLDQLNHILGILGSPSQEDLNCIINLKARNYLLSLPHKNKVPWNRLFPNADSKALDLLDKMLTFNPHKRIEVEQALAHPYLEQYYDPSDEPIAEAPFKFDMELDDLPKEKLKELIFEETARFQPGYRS
Chain of UniProt Q15759 (whole entry, looked up): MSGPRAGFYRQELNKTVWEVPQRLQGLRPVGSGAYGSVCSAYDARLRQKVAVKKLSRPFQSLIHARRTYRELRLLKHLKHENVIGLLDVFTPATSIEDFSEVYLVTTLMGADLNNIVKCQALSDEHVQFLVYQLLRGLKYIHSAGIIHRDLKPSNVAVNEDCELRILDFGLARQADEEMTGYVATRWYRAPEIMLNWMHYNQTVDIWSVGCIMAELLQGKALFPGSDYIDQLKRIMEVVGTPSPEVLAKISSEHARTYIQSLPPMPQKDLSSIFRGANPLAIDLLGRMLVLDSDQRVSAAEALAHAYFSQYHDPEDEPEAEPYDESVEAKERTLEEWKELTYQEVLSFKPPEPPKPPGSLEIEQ
Chain of UniProt Q6P2M8 (whole entry, looked up): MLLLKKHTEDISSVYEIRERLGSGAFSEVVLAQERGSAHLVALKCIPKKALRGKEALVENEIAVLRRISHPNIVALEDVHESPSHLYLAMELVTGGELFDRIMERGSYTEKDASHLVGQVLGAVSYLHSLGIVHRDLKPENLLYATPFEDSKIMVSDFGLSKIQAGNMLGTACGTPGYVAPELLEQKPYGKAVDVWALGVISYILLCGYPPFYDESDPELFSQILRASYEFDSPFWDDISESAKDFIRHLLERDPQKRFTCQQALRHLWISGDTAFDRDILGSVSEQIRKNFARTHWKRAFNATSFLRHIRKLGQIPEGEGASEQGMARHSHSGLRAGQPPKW
Chain of UniProt P31751 (whole entry, looked up): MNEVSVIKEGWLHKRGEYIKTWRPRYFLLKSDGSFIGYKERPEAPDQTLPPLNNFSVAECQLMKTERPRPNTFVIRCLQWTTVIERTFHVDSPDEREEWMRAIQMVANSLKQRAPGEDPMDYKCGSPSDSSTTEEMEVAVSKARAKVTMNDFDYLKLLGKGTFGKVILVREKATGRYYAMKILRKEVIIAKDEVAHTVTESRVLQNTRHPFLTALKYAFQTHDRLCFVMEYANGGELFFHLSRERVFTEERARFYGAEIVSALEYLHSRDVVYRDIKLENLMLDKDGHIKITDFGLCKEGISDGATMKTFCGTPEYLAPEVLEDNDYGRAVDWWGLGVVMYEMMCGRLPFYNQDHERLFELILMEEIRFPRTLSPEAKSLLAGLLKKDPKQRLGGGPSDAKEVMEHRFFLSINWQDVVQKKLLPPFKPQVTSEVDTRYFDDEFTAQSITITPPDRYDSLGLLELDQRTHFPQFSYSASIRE
Chain of UniProt Q02750 (whole entry, looked up): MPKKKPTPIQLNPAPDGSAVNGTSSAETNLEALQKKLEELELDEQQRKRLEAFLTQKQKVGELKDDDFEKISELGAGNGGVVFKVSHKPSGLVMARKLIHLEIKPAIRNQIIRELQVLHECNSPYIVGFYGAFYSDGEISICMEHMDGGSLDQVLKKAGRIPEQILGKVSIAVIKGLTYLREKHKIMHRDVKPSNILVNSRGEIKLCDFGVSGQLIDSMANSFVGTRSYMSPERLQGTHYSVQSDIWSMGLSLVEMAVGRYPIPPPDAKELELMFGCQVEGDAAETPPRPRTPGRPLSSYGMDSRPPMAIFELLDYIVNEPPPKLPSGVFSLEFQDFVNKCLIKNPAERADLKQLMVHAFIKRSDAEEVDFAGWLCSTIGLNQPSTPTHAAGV
Chain of UniProt Q8N568 (whole entry, looked up): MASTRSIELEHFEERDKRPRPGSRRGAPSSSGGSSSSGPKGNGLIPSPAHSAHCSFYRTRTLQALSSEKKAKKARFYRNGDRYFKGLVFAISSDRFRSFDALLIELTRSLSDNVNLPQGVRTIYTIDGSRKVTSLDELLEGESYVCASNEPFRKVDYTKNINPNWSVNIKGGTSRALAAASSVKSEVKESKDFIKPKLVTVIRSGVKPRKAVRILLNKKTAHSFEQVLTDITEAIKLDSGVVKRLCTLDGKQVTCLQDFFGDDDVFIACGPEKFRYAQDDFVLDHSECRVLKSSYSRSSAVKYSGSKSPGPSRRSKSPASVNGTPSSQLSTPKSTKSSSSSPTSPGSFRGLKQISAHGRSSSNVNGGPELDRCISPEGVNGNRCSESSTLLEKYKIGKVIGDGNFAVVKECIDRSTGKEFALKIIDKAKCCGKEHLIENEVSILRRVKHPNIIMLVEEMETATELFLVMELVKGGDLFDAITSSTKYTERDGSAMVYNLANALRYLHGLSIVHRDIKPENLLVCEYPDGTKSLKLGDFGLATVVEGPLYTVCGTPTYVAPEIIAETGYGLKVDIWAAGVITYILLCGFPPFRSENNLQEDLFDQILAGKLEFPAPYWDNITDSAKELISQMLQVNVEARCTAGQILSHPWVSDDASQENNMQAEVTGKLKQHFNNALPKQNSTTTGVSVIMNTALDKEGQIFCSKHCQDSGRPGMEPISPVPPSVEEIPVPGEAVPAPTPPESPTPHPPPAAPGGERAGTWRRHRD

Set 1
Target: D(4) dopamine receptor (DRD4, Homo sapiens, UniProt P21917)
Chain of UniProt P21917 (whole entry, looked up): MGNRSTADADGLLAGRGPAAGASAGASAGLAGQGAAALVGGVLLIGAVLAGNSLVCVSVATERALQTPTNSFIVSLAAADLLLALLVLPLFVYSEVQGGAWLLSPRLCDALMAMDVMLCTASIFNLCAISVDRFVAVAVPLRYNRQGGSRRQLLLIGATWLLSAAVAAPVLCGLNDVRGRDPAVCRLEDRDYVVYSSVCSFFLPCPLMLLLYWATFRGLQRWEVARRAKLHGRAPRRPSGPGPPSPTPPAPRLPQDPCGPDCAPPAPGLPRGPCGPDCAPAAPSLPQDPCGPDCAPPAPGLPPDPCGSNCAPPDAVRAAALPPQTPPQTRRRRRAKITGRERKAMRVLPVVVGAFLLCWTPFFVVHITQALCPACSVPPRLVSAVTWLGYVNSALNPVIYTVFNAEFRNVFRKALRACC
Read-out: binding
Technique: radioligand binding
Tested at: 10 µM
Endpoint: inhibition
COCCc1ccc(-c2c(C)nc3c(N4CCOCC4)ccnn23)cn1: -3.39%
CNC(=O)Nc1ccc2c(c1)[C@]1(CC2)OC(=O)N(CC(=O)N(Cc2ccc(F)cc2)[C@@H](C)C(F)(F)F)C1=O: 8.38%
Nc1c(C(=O)NCc2ccc(C(=O)NCCCC3CCCCC3)cc2)cnn1-c1ccccc1: -12.9%
CC(C)CC(=O)N1CCc2nc(-c3ccc(Br)cc3)nc(N(C)Cc3ccccc3)c2C1: 7.93%
Cc1nc(C2CCN(C(=O)c3ccc(OC(F)(F)F)cc3N)CC2)c2ncc(N3CCN(C)CC3)cc2n1: 1.98%
Cc1nc(N2CC[C@@H](O)C2)ncc1-c1cc(C(F)(F)F)cc2[nH]ncc12: 7.69%

Set 2
Target: Eukaryotic initiation factor 4A-I (EIF4A1, Homo sapiens, UniProt P60842)
Chain of UniProt P60842 (whole entry, looked up): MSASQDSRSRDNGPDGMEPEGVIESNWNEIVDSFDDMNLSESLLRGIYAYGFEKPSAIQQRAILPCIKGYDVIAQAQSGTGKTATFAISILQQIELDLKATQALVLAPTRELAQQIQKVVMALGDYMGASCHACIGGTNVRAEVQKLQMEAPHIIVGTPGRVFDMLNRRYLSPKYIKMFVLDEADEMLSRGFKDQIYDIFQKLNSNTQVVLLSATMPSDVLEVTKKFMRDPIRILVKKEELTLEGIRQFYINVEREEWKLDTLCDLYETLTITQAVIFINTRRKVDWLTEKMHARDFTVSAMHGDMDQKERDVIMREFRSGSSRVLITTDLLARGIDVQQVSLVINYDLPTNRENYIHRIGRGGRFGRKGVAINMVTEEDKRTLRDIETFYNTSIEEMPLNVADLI
Read-out: RNA clamping
Technique: fluorescence polarization
Tested at: concentration not given
Added: FAM-labelled poly r(AG)8 RNA
Reading: higher = more clamping
Endpoint: fluorescence polarization change
COC(=O)[C@@H]1[C@@H](c2ccccc2)[C@]2(c3ccc(OC)cc3)Oc3cc(OC)cc(OC)c3[C@@]23NC(N2CCOCC2)=N[C@@]13O: 68.9 mP
CCOCCOCCN(OC)C(=O)[C@H]1[C@@H](O)[C@@]2(O)c3c(OC)cc(OC)cc3O[C@@]2(c2ccc(OC)cc2)[C@@H]1c1ccccc1: 31.8 mP
C=CCN[C@@]12C(=O)[C@H](C(=O)OC)[C@@H](c3ccccc3)[C@]1(c1ccc(OC)cc1)Oc1cc(OC)cc(OC)c12: -10.3 mP
COc1cc(OC)c2c(c1)O[C@@]1(c3ccc(Br)cc3)[C@H](c3ccccc3)C3=C(N[C@H]4CCCN4C3=O)[C@@]21O: 35.1 mP
COc1ccc([C@]23Oc4cc(OC)cc(OC)c4[C@](O)([C@H](C(=O)OCc4ccccc4)[C@H]2c2ccccc2)[C@@H]3O)cc1: 2.5 mP
COc1cc(OC)c2c(c1)N(C)[C@]1(c3ccc(Br)cc3)C(=O)[C@@]2(O)[C@H](c2ccccc2)[C@H]1c1ccccc1: 3.7 mP
COc1ccc([C@@]23Oc4cc(OC)cc(OC)c4[C@]2(O)[C@H](O)[C@H](C(=O)c2oc4ccccc4c2C)[C@H]3c2ccccc2)cc1: -4.7 mP
COc1cc(OC)c2c(c1)O[C@@]1(c3ccc(Br)cc3)[C@H](c3ccccc3)C3=C(O[C@@H]4CCCN4C3=O)[C@@]21O: 62.4 mP

Set 3
Structure (SMILES): CCN(CC)CCCCN1c2ccccc2Oc2ccc(Cl)cc21
Read-out: enzyme activity
Action: inhibitor
Tested at: 0.5 µM
Reference: control
Endpoint: remaining activity
MAPK1 (Homo sapiens, UniProt P28482): 84.7%
AKT2 (Homo sapiens, UniProt P31751): 101%
MAP2K1 (Homo sapiens, UniProt Q02750): 98.1%
NEK3 (Homo sapiens, UniProt P51956): 103%
PLK3 (Homo sapiens, UniProt Q9H4B4): 102%
MARK2 (Homo sapiens, UniProt Q7KZI7): 86.1%
ROCK1 (Homo sapiens, UniProt Q13464): 92.6%
MAPK14 (Homo sapiens, UniProt Q16539): 95.8%
PNCK (Homo sapiens, UniProt Q6P2M8): 107%
DCLK2 (Homo sapiens, UniProt Q8N568): 101%
MAPK11 (Homo sapiens, UniProt Q15759): 103%
GRK4 (Homo sapiens, UniProt P32298): 102%
TXK (Homo sapiens, UniProt P42681): 101%
KDR (Homo sapiens, UniProt P35968): 93.7%

Set 4
Cell line: mouse MPNST tumor cells
Technique: high-content immunofluorescence imaging
Refers to: nuclear SOX9
Tested at: 10 µM
Time: 12 h
Notes: mean of 2 replicates
Reference: DMSO control
Reading: higher = more nuclear SOX9
Endpoint: nuclear SOX9 intensity
O=C1C=CC(=O)C2=C1C1c3ccccc3C2c2ccccc21: 93.2 % of DMSO
COC(=O)c1c(C)[nH]c(C)c1C(=O)c1ccccc1Cc1ccccc1: 96.8 % of DMSO
NC(=O)OCC(O)COc1ccc(Cl)cc1 (centres unmarked): 96.4 % of DMSO
CCCCCCCN(CC)CCCC(O)c1ccc(NS(C)(=O)=O)cc1 (centres unmarked): 98.3 % of DMSO and 114 % of DMSO and 116 % of DMSO
C[n+]1ccccc1/C=N/O: 92.1 % of DMSO
COc1cc(N2CCOCC2)ccc1Nc1ncc(F)c(Nc2ccccc2NS(C)(=O)=O)n1: 93.9 % of DMSO
NC(=O)c1cccnc1: 105 % of DMSO
CN(C)CCOC(c1ccccc1)c1ccccc1: 113 % of DMSO
CN1CCC(=C2c3ccccc3CCc3cccnc32)CC1: 97.5 % of DMSO and 97 % of DMSO
Cc1cnc(-c2cnc(NCCNc3ccc(C#N)cn3)nc2-c2ccc(Cl)cc2Cl)[nH]1: 54.3 % of DMSO

Some of these lines once more (set 1):
CC(C)CC(=O)N1CCc2nc(-c3ccc(Br)cc3)nc(N(C)Cc3ccccc3)c2C1: 7.93%
COCCc1ccc(-c2c(C)nc3c(N4CCOCC4)ccnn23)cn1: -3.39%
Cc1nc(C2CCN(C(=O)c3ccc(OC(F)(F)F)cc3N)CC2)c2ncc(N3CCN(C)CC3)cc2n1: 1.98%
CNC(=O)Nc1ccc2c(c1)[C@]1(CC2)OC(=O)N(CC(=O)N(Cc2ccc(F)cc2)[C@@H](C)C(F)(F)F)C1=O: 8.38%
Cc1nc(N2CC[C@@H](O)C2)ncc1-c1cc(C(F)(F)F)cc2[nH]ncc12: 7.69%
Nc1c(C(=O)NCc2ccc(C(=O)NCCCC3CCCCC3)cc2)cnn1-c1ccccc1: -12.9%
